# Experimental data collected from several papers.
# A part holds a random share of what one study measured. Substitutions count along the parent as printed.

# Set 1 — target: CCND2, cyclin fold, Cln2 fusion (human); technique: yeast growth competition, sequencing; medium: yeast; setting: weak parent motif; reference: not given; reading: higher = stronger binding
# Parent: ORC1 docking peptide (human); PRARKRLELGNLG; partner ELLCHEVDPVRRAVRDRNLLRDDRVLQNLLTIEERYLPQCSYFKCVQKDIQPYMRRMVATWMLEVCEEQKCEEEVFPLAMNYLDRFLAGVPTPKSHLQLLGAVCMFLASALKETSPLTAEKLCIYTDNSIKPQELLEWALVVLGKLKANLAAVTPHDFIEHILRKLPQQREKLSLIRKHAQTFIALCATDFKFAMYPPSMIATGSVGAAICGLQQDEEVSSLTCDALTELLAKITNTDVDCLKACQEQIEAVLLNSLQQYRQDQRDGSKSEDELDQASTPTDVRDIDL
Change,normalised enrichment score
PRARKRLELGNPG [L12P],0.407
NRARKRLELGNLG [P1N],0.236
PRARLRLELGNLG [K5L],0.0404
PEARKRLELGNLG [R2E],0.15
PRARKRLELGNLE [G13E],-0.415
HRARKRLELGNLG [P1H],0.1
PRARKRLELGNLM [G13M],0.334
PRARKRLESGNLG [L9S],0.371
PRARKRLENGNLG [L9N],-0.37
PRFRKRLELGNLG [A3F],-0.169
PRARKRLELGNLD [G13D],0.114
PRARKHLELGNLG [R6H],-0.0979
PSARKRLELGNLG [R2S],-0.299
PRARKRDELGNLG [L7D],-0.204

# Set 2 — technique: competition protein-binding microarray; molecule type: double-stranded DNA, one strand shown; medium: in vitro; tested at: 2 µM; added: Pho4 competitor, 0.05 µM; reading: higher = stronger binding; constant ends, left off below: … GTCTTGATTCGCTTGACGCTGCTG
# Target: Centromere-binding protein 1, full length, His-tagged (CBF1, Saccharomyces cerevisiae, UniProt P17106, residues 1-351)
# Chain of UniProt P17106 (whole entry, looked up): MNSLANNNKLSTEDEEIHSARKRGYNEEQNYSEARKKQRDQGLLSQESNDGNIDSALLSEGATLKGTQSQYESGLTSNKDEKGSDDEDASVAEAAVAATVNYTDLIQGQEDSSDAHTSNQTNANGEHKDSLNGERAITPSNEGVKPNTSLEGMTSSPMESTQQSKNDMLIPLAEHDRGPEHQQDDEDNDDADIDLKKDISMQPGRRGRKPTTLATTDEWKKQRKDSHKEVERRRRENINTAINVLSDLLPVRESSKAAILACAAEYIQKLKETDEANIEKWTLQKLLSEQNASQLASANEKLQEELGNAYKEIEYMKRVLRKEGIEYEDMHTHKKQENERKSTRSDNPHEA
# Setting: whole 60-bp probe, lowest competitor level
Sequence,fluorescence intensity
TCCTTTTTTGCGAGTCACGTTCCTGCAGCGCGTTTC,1310 a.u.
CTCACTCAGTACCATTACGTGTGAAAACTCCGCTGG,73.8 a.u.
CAAGTTCCGGGGCGTCACATGGAAACAATGGCACTT,372 a.u.
AAATTACTAAGTTTTCACGTGGGTTACCCCGTATGA,715 a.u.
TGCCTCTTTTTTCTACACATGCAGTGTTAAATCCCA,105 a.u.
CCGGCGCTGCTAAATCATGTGAGTTTAGCGCGTACC,324 a.u.
TCAACAATATTGTCCCACGCAGCTATCCTGTCTGTG,76.8 a.u.
ATGAATGTTGCGAGTCACGTCTTTTGTCTCGATACC,226 a.u.
CTTCTGTAAATTTGTCACGGAACTTGACGCGCCCCG,83.4 a.u.
TGCACCAATGTCCTCCACGGGATCGCCACTTTTTTT,139 a.u.
GGGAAACGCCCAGAGCACGTGCTCCTGCCCGACACC,2160 a.u.
CTTCTGTAAATTTGCAGGGTGGGTGGACGCGCCCCG,84.7 a.u.
TACTATTATTAGACTTCATTACTGAGTTTATTAGTT,93.4 a.u.
CCAAGTGGATATTTTCACGTTTGCGCGCTGCGTCTT,85.8 a.u.
TAAGCAAATGAACCGCACATGTAGGCCGCAAATCTT,96 a.u.
AAATTACTAAGTTGCGCAGTGGGTGACGCCGTATGA,56.9 a.u.
GGTTGGCTCTGGTAACGCATGACAGGGTATGAAAAA,110 a.u.

# Set 3 — technique: RNA Bind-n-Seq; molecule type: RNA; medium: in vitro; tested at: 365 nM; reference: no-protein control; reading: higher = stronger binding
# Target: RNA binding protein fox-1 homolog 2, RRM domain, GST-SBP tag (RBFOX2, Homo sapiens, UniProt O43251-10, residues 100-194)
# Setting: natural RNA segment, single round, ends assumed
# Constant ends, left off below: GGGAGUUCUACAGUCCGACGAUC … UGGAAUUCUCGGGUGCCAA
# Target sequence (chain): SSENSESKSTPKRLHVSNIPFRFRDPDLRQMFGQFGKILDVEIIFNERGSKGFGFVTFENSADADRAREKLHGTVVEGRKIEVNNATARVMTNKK
Sequence,RBNS enrichment (R)
GUUGGGACUCGCUGUUGCCAUCCUCUUUGUUGUAUCUGGUUUUCAUCACUAGACUCAGCAACCCUUCUCACCUUAACUGCCACCUUCCCUACACUCUCAGUUUACAGAGG,0.378
UCCCCCUGUGUUUUCACGCAGGUCAUAUUGUCAGUCCUACAAAAAUAAAAGGCUUCCAGAGGAGAGUGGCCUGGGUCCCAGGGCUGGCCCUAGGCACUGAUAGUUGCCUU,0.419
GAGCCAUCCUUGUUUCCAAAUAUGACCCUUCGCUUGAGGGCAACUGCAUAGGUACAUCUAACUCUGGACUGGCAUGCACAUUGUCAUGUGCAGCUUUGCAUAUACACACA,1.28
GAUCCAUGGAUGUUCCAUCUGUAGGACCAACUUGAUGUGCCCAUCCUGACAUUGUAUGCCACAAGAGCUCUUGUGAUGAUGGAAUUUUGAUUAAAGUGCACCGGAAGACG,1.77
UGUUAGAAAAAAAUGUGAUUUAACUAGAACUUGCUGUCUGAUGUUAGCAAAUCAUGGAAUGUUCUGAGUCCCUGAGGGUUUACUGUGAAGUGCUGAGGACAGUGUUGACA,2.03
CAUGCUUUAAAUGAUGUCACUUUCCACAACUUCAUUCUUGUGCUGUCAUUGGACUGAAUGUUAUGCAUCUUUAAAGGGAAUCACUUCGUGUAAAACUCUCUUGUCUCUUC,0.49
UUCCCCAAAGCCCUGGGCCACUGCCAUUGGGUUAGUCAAGAUGAAGGAGGAGGACUGGCUGCCUCCAUUUUGCCUUGUUUGUUAGUUUGCCUGGGUCUGUCUGAGGAAGG,4.17
UUUGUCAUCAGACAAGGACUUUGAUCCUGUCCCCUUUGGCAUGCGGGAAGCAGCCGCGGGGAGGUAAUGAAUUGUCUGUGGUAUCAUGUCAGCAGAGUCUCCAAGCCCCA,0.545
GAGUCACGCUCAAUUGACCCUGCCAGAGACGGGAAGAGGGGGGCUGUCGGCUGCUGCUUCUGGGCCACGGGGAGCCCCAGGACCUAUGCACUUUAUUUCUGACCCCGUGG,0.957
UAGUUUCACUGCUCAUAUACCAGCUGCUACAAGAAAAACCAUGACUUGUAAGUUUGUCUUUACUCCUAAUUGCUAAAUUAACUGAAACCCUUCCUGUCUAGGGAGAAUUG,0.522
AAGACUAUGUCCUAGUGGAGGGAGUAAUCCUAACACCCAGGCUGGCCGCCAGCUGGCACCUGCCUCUAUCCCAGACUGCCCUCGUCCCAGCUCUCUGUCCAACUGUUGAU,0.252
AACUUCUGUGCUGCUUUGCCCCUAGCCAAGGCUCUCCUUCCCCAAGAGGUUAGCUUUGGCAUUGGAAGAUGAGAUUUUUGCUUACCUGUAGUAUUUCUGUACAUACCUGU,0.279

# Set 4 — technique: DHFR PCA, deep sequencing; medium: yeast; added: (+)-ABA 0.0091 µM; reference: wild-type fitted maximum; reading: higher = stronger binding
# Target: ABI1, truncated, D143A, DHFR fusion (Arabidopsis thaliana)
# Setting: methotrexate growth selection, single substitutions
# Parent: PYL1, truncated, DHFR fusion (Arabidopsis thaliana); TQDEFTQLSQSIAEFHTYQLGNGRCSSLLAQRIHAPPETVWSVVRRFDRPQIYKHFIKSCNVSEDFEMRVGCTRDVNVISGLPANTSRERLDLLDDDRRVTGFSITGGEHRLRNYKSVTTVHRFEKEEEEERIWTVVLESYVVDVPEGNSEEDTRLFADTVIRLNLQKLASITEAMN
Change,relative binding score [%]
R123E,45.7
M68A,-2.35
D96M,-4.63
A170M,-1.69
T173D,-1.09
G71F,-6.75
E128F,7.45
N149D,12.8
C60E,7.11
V76S,0.964
R24H,3.01
H110P,69.9
F47L,-3.1
S171V,17.6
R163I,-0.373
F56I,2.84
T39P,-8.36

# Set 5 — target: FOS, bZIP domain (human); technique: DHFR protein complementation; medium: yeast; reference: wild-type JUN-FOS pair; reading: higher = stronger binding
# Setting: single substitutions, most at no-binding floor
# Parent: JUN, bZIP domain (human); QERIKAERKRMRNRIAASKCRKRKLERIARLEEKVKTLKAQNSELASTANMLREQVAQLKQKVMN; partner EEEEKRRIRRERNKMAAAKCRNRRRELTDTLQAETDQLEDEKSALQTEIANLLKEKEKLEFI
Change,binding fitness [natural log]
Q55V,-0.0496
V35W,-0.526
K34E,-0.316
N42F,-1.31
S47R,0.0761
A49M,-0.26
E54R,-0.172
A29S,-0.101
K36C,-0.00689
L38K,-1.23
L38S,-1.16
Q41D,-0.204
R53A,-0.369

# Other studies, line by line
Substance,target,test,test system,setting,scale,quantity,value
"PhoQ, residues 284 288 289 292 302 303 SNGLAW","PhoP, residues 12 14 15 18 19 LQHIR (Escherichia coli, UniProt P23836)","Sort-seq, item: YFP reporter",E. coli,"PhoQ-PhoP variant library, added: 10 µM Mg2+","reference: high Mg2+ state, higher = stronger signaling",fold induction,4.52

# Excerpt of the above (set 3):
Sequence,RBNS enrichment (R)
AAGACUAUGUCCUAGUGGAGGGAGUAAUCCUAACACCCAGGCUGGCCGCCAGCUGGCACCUGCCUCUAUCCCAGACUGCCCUCGUCCCAGCUCUCUGUCCAACUGUUGAU,0.252
UAGUUUCACUGCUCAUAUACCAGCUGCUACAAGAAAAACCAUGACUUGUAAGUUUGUCUUUACUCCUAAUUGCUAAAUUAACUGAAACCCUUCCUGUCUAGGGAGAAUUG,0.522
UUUGUCAUCAGACAAGGACUUUGAUCCUGUCCCCUUUGGCAUGCGGGAAGCAGCCGCGGGGAGGUAAUGAAUUGUCUGUGGUAUCAUGUCAGCAGAGUCUCCAAGCCCCA,0.545
UCCCCCUGUGUUUUCACGCAGGUCAUAUUGUCAGUCCUACAAAAAUAAAAGGCUUCCAGAGGAGAGUGGCCUGGGUCCCAGGGCUGGCCCUAGGCACUGAUAGUUGCCUU,0.419
